Results pooled from the literature.
Every numbered part comes from another study and shows a few of its results, in no order. Changes are numbered by the printed parent chain.

Sample 1
Target: RING finger protein unkempt homolog, zinc fingers 1-6, SBP tag (UNK, Homo sapiens, UniProt Q9C0B0, residues 30-357)
UniProt Q9C0B0, sequence (30-357, looked up): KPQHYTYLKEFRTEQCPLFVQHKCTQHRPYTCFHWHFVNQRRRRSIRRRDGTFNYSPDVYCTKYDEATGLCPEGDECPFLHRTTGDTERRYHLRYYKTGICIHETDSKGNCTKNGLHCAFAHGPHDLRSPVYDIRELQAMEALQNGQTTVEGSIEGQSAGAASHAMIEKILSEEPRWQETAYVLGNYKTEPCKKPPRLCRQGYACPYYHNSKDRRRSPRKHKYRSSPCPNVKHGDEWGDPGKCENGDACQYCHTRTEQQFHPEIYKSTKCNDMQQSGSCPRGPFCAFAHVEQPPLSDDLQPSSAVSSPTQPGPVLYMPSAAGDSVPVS
Technique: RNA Bind-n-Seq
Form: RNA
Sample: in vitro
Tested at: 100 nM
Notes: RNA with constant flanks, vertebrate orthologous sites, ends assumed
Reference: input RNA pool
Direction: higher = stronger binding
Constant ends, left off below: GGGAGUUCUACAGUCCGACGAUC … CAACAGAGGAUUGAGCAUCA
With `UGUUCAGUCCCCUGGGCAGGGACAAGUUUUUUUAAUGUCUUGGAACAAACUCUGUGCUUGUAGGAAACGGCAACUUUUUUUUUCUUUUUCUUUUUUUAAAGCCAAACGUCCACCCACCCU` the bound/input enrichment was 1.02 ratio.
The bound/input enrichment of `CCGAAAGGCCAAAUCCCCUCCUCCCUUCUACUGCUUCUGCCAACUGGAAGCACAGAAAACUAGAACUUCAUUUAUUUUGUUUUUUUUUUUAAAAAAGAUACACUGAUUUAACAUCGGUAG` is reported as 1.05 ratio.
The bound/input enrichment of `ACAUAUGUAAUCAUUUGAUUAAAAUUGGAUAAGAGAUUACUGUUCAUUUUCCCUUUCAAACACACUUAUCCUAUUUUUAAUCUAUUUUGCAAAACAUCAGUUGUGAAUGGCUGCUUGACA` is reported as 0.577 ratio.
The bound/input enrichment of `AGGUUGGGGGAAACACUCCAUGUUAGUACCAAGAGCAGUCACUUGGGCUAAAUCUGACAUCAUGACUCCCCAAGGGCACUUCCCACUUUGAGUAGGAUCUGACUAGCCUCUCAGAUUUGC` is reported as 0.165 ratio.
`AUCAUCUGACUGGAUGAAGACUGUCCCAAGUUACAACCAAACAAAUAGCUCCAUGGACUUUAGAAAUUACAUGAUGAGAGAUGAGAAUUUGGAGCCACUGCCUAAAAACUGGGAAAUGGC` gave a bound/input enrichment of 0.444 ratio.
`UAUUCAAAAUCUAAAUAAAUUGCUCUGAAGUCAGAAAGUUCAUUUUGGAGGAUCUGACCAUAGGCAGGUGUUGCCAUAUUGUUUUGUUCUGUUUUUUAAACUUGUGUGCUAUGUCCAGAG` gave a bound/input enrichment of 0.333 ratio.
`AUUUUUUAAAGUUUUUUUAAUUUAAUUUUUUCUUUUGGGGGUAAAGUUUGCUCUACCAAAUAGUGAUCGUAACAAAUUGAUCUGUUUUGGAUGUUGCUAUAGUGACAUGCAGUUAUAUAU` gave a bound/input enrichment of 0.714 ratio.
For `GGGACGCUUUGAUGUAAAGAUUGAAGUUAAGAGCUGAUCGCAAGCACAGAUCCUUCCCACUAGCCAUUUAAAACAGUUAAAGAUACAAAAACAAACACCUACUAGUCUUGAAUAAACUGU`, the bound/input enrichment was 2.48 ratio.

Sample 2
Target: inorganic phosphate, free oxyanion
Technique: microfluidic competitive inhibition
Sample: in vitro, cell-free expressed
Tested at: not given
Notes: derived from inhibition constants, unchanged parent 615000 nM
Direction: lower = stronger binding
Starting sequence: PafA, mature enzyme, eGFP fusion (Elizabethkingia meningoseptica, UniProt Q9KJX5); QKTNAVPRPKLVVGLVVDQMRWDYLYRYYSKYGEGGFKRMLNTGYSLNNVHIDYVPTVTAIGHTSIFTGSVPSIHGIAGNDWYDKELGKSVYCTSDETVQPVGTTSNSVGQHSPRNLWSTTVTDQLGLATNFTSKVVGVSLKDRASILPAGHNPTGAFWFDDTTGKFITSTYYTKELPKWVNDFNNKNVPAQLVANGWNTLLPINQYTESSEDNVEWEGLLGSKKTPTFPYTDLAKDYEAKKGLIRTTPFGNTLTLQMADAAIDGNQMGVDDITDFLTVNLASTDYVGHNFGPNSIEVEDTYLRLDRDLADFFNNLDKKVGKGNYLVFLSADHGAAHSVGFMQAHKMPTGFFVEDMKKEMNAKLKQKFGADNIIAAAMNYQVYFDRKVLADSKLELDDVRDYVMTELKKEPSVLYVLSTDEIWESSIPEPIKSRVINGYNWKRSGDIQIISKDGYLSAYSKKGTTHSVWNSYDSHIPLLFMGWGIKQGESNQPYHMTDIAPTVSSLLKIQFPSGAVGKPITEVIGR
`D306G` — result for “phosphate dissociation constant”: 607 µM.
`P203V` — result for “phosphate dissociation constant”: 598 µM.
For `G265A`, “phosphate dissociation constant” read 631 µM.
`L507V`: “phosphate dissociation constant” 599 µM.
`Y24V` — result for “phosphate dissociation constant”: 625 µM.
Under “phosphate dissociation constant”, `E429V` is recorded as 515 µM.
`G156V`: “phosphate dissociation constant” 500 µM.
`V353A`: “phosphate dissociation constant” 713 µM.
For `Y494V`, “phosphate dissociation constant” read 573 µM.
Under “phosphate dissociation constant”, `T3V` is recorded as 635 µM.
`V270G`: “phosphate dissociation constant” 627 µM.
`I52G`: “phosphate dissociation constant” 499 µM.
For `D272V`, “phosphate dissociation constant” read 650 µM.
Under “phosphate dissociation constant”, `V50A` is recorded as 506 µM.
`S474G` — result for “phosphate dissociation constant”: 419 µM.
`S451G` — result for “phosphate dissociation constant”: 501 µM.
For `T163V`, “phosphate dissociation constant” read 562 µM.
`I77V` — result for “phosphate dissociation constant”: 574 µM.
Under “phosphate dissociation constant”, `F312V` is recorded as 555 µM.
For `K357V`, “phosphate dissociation constant” read 569 µM.
For `P348V`, “phosphate dissociation constant” read 576 µM.
`L329G`: “phosphate dissociation constant” 755 µM.
`V327G`: “phosphate dissociation constant” 543 µM.
For `V91G`, “phosphate dissociation constant” read 2200 µM.
Under “phosphate dissociation constant”, `Y28G` is recorded as 405 µM.

Sample 3
Target: Protein C-ets-1 (ETS1, Homo sapiens, UniProt P14921, residues 1-441, full length assumed)
UniProt P14921, sequence (whole entry, looked up): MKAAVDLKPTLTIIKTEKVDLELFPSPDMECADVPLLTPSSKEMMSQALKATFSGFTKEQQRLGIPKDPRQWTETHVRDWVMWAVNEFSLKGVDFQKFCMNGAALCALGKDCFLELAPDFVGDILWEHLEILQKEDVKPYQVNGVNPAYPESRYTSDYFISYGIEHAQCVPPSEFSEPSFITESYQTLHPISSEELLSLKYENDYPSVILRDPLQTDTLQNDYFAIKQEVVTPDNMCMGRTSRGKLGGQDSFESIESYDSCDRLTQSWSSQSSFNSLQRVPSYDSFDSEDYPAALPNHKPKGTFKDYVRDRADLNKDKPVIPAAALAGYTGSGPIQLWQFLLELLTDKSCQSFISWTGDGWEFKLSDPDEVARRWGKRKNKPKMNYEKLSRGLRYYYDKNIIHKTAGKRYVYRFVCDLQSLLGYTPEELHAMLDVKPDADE
Technique: protein-binding microarray
Form: double-stranded DNA, one strand shown
Sample: in vitro
Tested at: not given
Notes: k-mer, scored over probes, only values ≥0.25
Direction: higher = stronger binding
`GGAAATCC` gave an E-score of 0.426.
`AAATACCG` gave an E-score of 0.287.
The E-score of `GAAGTGGA` is reported as 0.329.
`TCCGTCGA` gave an E-score of 0.261.
`CGGATACC` has an E-score of 0.417.
With `CCTCTTCC` the E-score was 0.408.
With `ACTTTCCG` the E-score was 0.392.
With `GGACAGGA` the E-score was 0.418.

Sample 4
Target: UDP-N-acetylglucosamine--peptide N-acetylglucosaminyltransferase 110 kDa subunit (OGT, Homo sapiens, UniProt O15294)
Read-out: binding
Technique: phage display NGS
Form: peptide
Tested at: concentration not given
Reference: input library
Residues (O15294 1-1046): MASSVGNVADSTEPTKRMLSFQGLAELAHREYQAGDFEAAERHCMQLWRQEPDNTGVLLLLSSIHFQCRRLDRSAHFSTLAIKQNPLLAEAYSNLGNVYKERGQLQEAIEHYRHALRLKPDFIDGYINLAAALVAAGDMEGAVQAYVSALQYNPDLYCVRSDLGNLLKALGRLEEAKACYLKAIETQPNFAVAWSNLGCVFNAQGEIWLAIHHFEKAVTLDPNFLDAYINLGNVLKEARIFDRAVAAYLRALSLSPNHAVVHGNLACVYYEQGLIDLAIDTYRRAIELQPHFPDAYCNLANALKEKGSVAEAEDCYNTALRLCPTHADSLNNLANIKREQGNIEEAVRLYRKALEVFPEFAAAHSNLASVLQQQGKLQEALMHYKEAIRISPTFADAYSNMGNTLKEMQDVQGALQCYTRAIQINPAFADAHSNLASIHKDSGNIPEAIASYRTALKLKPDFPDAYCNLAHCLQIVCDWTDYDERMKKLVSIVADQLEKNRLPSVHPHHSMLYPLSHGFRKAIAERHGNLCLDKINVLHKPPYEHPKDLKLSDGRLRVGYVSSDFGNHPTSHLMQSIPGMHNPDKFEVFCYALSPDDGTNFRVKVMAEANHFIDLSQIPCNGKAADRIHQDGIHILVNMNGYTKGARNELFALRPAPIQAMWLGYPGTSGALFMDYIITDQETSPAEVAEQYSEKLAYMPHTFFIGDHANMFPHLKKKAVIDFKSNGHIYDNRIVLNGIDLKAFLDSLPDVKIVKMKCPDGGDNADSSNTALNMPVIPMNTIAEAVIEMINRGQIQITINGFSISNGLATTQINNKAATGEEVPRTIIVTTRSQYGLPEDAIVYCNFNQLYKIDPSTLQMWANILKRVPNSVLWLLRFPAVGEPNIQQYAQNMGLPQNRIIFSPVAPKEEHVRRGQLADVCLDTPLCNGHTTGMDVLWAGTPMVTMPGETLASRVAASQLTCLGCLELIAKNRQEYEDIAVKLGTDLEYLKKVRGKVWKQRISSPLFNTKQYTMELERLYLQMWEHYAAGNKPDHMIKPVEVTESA
`MWQHGPMGMTSHYP`: “enrichment fold change” 3.08.
`IQYPQVYPPKYQIMV` — result for “enrichment fold change”: 56.
Under “enrichment fold change”, `WTSQWQTRHPHHHTS` is recorded as 8.32.
Under “enrichment fold change”, `ASPSYVPHYQMVYKI` is recorded as 2.82.
Under “enrichment fold change”, `KYTPLYQIHAMPQAV` is recorded as 2.59.
`RNLHWDHHGPEHQHF` — result for “enrichment fold change”: 7.97.

Single results of other studies
Technique: cross-linking MS
`ESYT2 (Homo sapiens, UniProt A0FGR8)`: interaction screen “cross-linked” (ESYT1 (Homo sapiens, UniProt Q9BSJ8); hits only).
`DDB1 (Homo sapiens, UniProt Q16531)` — result for cross-linked residues: “K153 to K749” (PHIP (Homo sapiens, UniProt Q8WWQ0); cell fractions; together with: DSSO).
`NDUFA9 (Homo sapiens, UniProt Q16795)`: cross-linked residues “K370 to K76” (TOPAZ1 (Homo sapiens, UniProt Q8N9V7); cell fractions; together with: DSSO).
`ARCN1 (Homo sapiens, UniProt P48444)`: cross-linked residues “E30 to K771” (COPB1 (Homo sapiens, UniProt P53618); cell fractions; together with: DMTMM).

Excerpt of the above (sample 3):
`GGAAATCC` gave an E-score of 0.426.
`AAATACCG` gave an E-score of 0.287.
The E-score of `GAAGTGGA` is reported as 0.329.
`TCCGTCGA` gave an E-score of 0.261.
`CGGATACC` has an E-score of 0.417.
With `CCTCTTCC` the E-score was 0.408.
With `ACTTTCCG` the E-score was 0.392.
With `GGACAGGA` the E-score was 0.418.
